Experimental data of several laboratories.
Compare with care: the assays were run in different laboratories.

CC(C)C1NC(=O)C(C(=O)NC(C(=O)NC2C(=O)N3C2SC(C)(C)C3C(=O)O)c2ccccc2)=C1O (stereo not shown)  MIC (Escherichia coli; broth microdilution; isolate IU 356 A, KPC-3, VIM-1, TEM; added: clavulanic acid 6 µg/mL): > 200 µg/mL
Fc1ccc([C@@H]2CCNC[C@H]2COc2ccc3c(c2)OCO3)cc1  IC50 (Plasmodium falciparum; D10): 10 µM
CCCCCCCCCCCCCCCC(=O)NP(=O)(O)O  MIC (Streptococcus pneumoniae): 100 µg/mL
CN1CC(O)=C(C(=O)NC(C(=O)NC2C(=O)N3C2SC(C)(C)C3C(=O)O)c2ccccc2)C1=O (stereo not shown)  MIC (Escherichia coli; broth microdilution; isolate IU, CTX-M-14, TEM-1; added: clavulanic acid 6 µg/mL): > 200 µg/mL
CC[C@H](C)[C@H](N)C(=O)N[C@@H](CCCNC(=N)N)C(=O)N[C@H](C(=O)N[C@@H](Cc1c[nH]c2ccccc12)C(=O)N[C@@H](Cc1ccccc1)C(=O)N[C@H](C(=O)N[C@@H](CCCCN)C(=O)N[C@H](C(=O)N[C@@H](CCCNC(=N)N)C(=O)N[C@@H](CCCCN)C(=O)N[C@@H](Cc1c[nH]c2ccccc12)C(=O)N[C@@H](CCCCN)C(=O)N[C@@H](C)C(=O)N[C@H](C(=O)N[C@@H](Cc1ccc(O)cc1)C(=O)N[C@@H](Cc1c[nH]cn1)C(=O)N[C@H](C(N)=O)[C@@H](C)O)[C@@H](C)CC)C(C)C)[C@@H](C)CC)C(C)C  MIC (Salmonella typhimurium; broth dilution; SL1344): 100 µM
CC1(C)SC2C(NC(=O)C(NC(=O)C3=C(O)C4CCCN4C3=O)c3ccccc3)C(=O)N2C1C(=O)O (stereo not shown)  MIC (Escherichia coli; broth microdilution; Keio mutant JW0146-2; 18 h, ferric hydroxamate uptake gene): 25 µg/mL
N=C(N)NCCC[C@H](NC(=O)CN)C(=O)N[C@@H](Cc1c[nH]c2ccccc12)C(=O)N[C@@H](CCCNC(=N)N)C(=O)N[C@@H](Cc1c[nH]c2ccccc12)C(=O)N[C@@H](Cc1c[nH]c2ccccc12)C(=O)N[C@@H](Cc1c[nH]c2ccccc12)C(=O)N[C@@H](CCCNC(=N)N)C(=O)N[C@@H](Cc1c[nH]c2ccccc12)C(=O)N[C@@H](CCCNC(=N)N)C(=O)N[C@@H](Cc1ccccc1)C(N)=O  MIC (Candida albicans; broth microdilution; 56452, RPMI 1640-MOPS; 48 h, 30 °C): 8 µM
CN[C@H](CC(C)C)C(=O)N[C@H]1C(=O)N[C@@H](CC(N)=O)C(=O)N[C@H]2C(=O)N[C@H]3C(=O)N[C@H](C(=O)N[C@H](C(=O)O)c4cc(O)cc(O)c4-c4cc3ccc4O)[C@H](O)c3ccc(c(Cl)c3)Oc3cc2cc(c3O[C@@H]2O[C@H](CO)[C@@H](O)[C@H](O)[C@H]2O[C@H]2C[C@](C)(N)[C@H](O)[C@H](C)O2)Oc2ccc(cc2Cl)[C@H]1O  MIC (Clostridioides difficile; agar dilution anaerobic; 3581; 48 h): 1 µg/mL
N=C(N)c1ccc(OCc2cc(COc3ccc(C(=N)N)cc3)cc(-c3ccccc3)c2)cc1  MIC (Escherichia coli; mcr-1; 20 h, compound alone): 100 µg/mL
N=C(N)NCCC[C@H](NC(=O)[C@H](Cc1c[nH]c2ccccc12)NC(=O)[C@H](CCCNC(=N)N)NC(=O)[C@H](Cc1c[nH]c2ccccc12)NC(=O)[C@H](Cc1c[nH]c2ccccc12)NC(=O)[C@H](Cc1c[nH]c2ccccc12)NC(=O)[C@H](CCCNC(=N)N)NC(=O)[C@H](Cc1c[nH]c2ccccc12)NC(=O)[C@@H](N)CCCNC(=N)N)C(N)=O  MIC (Candida albicans; broth microdilution; CGMCC 2.209, RPMI 1640-MOPS; 48 h, 30 °C, added: ZnCl2 8 µM): 8 µM
CC(C)C[C@@H]1NC(=O)[C@@H](Cc2ccccc2)NC(=O)[C@H](CCN)NC(=O)[C@@H](NC(=O)[C@H](CCN)NC(=O)[C@@H](N)[C@@H](C)O)CCNC(=O)[C@H]([C@@H](C)O)NC(=O)[C@H](CCN)NC(=O)[C@H](CCN)NC1=O  MIC (Escherichia coli; mcr-1): > 200 µg/mL
N=C(N)NCCC[C@H](NC(=O)CN)C(=O)N[C@@H](Cc1c[nH]c2ccccc12)C(=O)N[C@@H](CCCNC(=N)N)C(=O)N[C@@H](Cc1c[nH]c2ccccc12)C(=O)N[C@@H](Cc1c[nH]c2ccccc12)C(=O)N[C@@H](Cc1c[nH]c2ccccc12)C(=O)N[C@@H](CCCNC(=N)N)C(=O)N[C@@H](Cc1c[nH]c2ccccc12)C(=O)N[C@@H](CCCNC(=N)N)C(=O)N[C@@H](Cc1c[nH]c2ccccc12)C(N)=O  MIC (Candida albicans; CGMCC 2.209; no added salts): 4 µM
CC(C)C[C@@H]1NC(=O)[C@H](Cc2ccccc2)NC(=O)[C@H](Cc2ccc(O)cc2)NC(=O)[C@H](CC(C)C)NC(=O)[C@H](CCC(=O)O)NC(=O)[C@H](Cc2ccccc2)NC(=O)[C@H](CCCNC(=N)N)NC(=O)[C@H](CCC(N)=O)NC(=O)[C@H](CC(C)C)NC(=O)[C@H](CC(=O)O)NC(=O)[C@@H]2CCCN2C(=O)[C@H](CCCCN)NC(=O)[C@H](C(C)C)NC(=O)[C@H](CC(N)=O)NC(=O)[C@H](Cc2ccc(O)cc2)NC(=O)[C@H]([C@@H](C)O)NC(=O)[C@@H](N)CSSC[C@@H](C(=O)O)NC(=O)[C@H]([C@@H](C)O)NC(=O)[C@H](C(C)C)NC(=O)[C@H]([C@@H](C)O)NC(=O)CNC1=O  MIC (Aeromonas hydrophila; broth dilution; 24 h): > 40 µM
[O-][N+]1=C(c2ccc(Cl)cc2)C2=NCCN2c2ccccc21  MIC (Clostridioides difficile): 0.125 to 0.25 µg/mL
CC(C)C[C@H](NC(=O)[C@H](CCCCN)NC(=O)[C@H](CO)NC(=O)[C@H](C)NC(=O)[C@H](C)NC(=O)CNC(=O)[C@H](CC(C)C)NC(=O)[C@H](CCCCN)NC(=O)[C@H](CC(C)C)NC(=O)[C@H](CC(C)C)NC(=O)[C@H](CC(C)C)NC(=O)CNC(=O)[C@H](CO)NC(=O)[C@H](Cc1c[nH]c2ccccc12)NC(=O)[C@@H](N)CCCCN)C(N)=O  MIC (Candida glabrata; broth microdilution; ATCC 2001; 44 h, 37 °C): 100 µM
CC[C@H](C)[C@H](NC(=O)CN)C(=O)NCC(=O)N[C@@H](C)C(=O)N[C@H](C(=O)N[C@@H](CC(C)C)C(=O)N[C@@H](CCCCN)C(=O)N[C@H](C(=O)N[C@@H](CC(C)C)C(=O)N[C@H](C(=O)N[C@H](C(=O)NCC(=O)N[C@@H](CC(C)C)C(=O)N1CCC[C@H]1C(=O)N[C@@H](C)C(=O)N[C@@H](CC(C)C)C(=O)N[C@H](C(=O)N[C@@H](CO)C(=O)N[C@@H](Cc1c[nH]c2ccccc12)C(=O)N[C@H](C(=O)N[C@@H](CCCCN)C(=O)N[C@@H](CCCNC(=N)N)C(=O)N[C@@H](CCCCN)C(=O)N[C@@H](CCCNC(=N)N)C(=O)N[C@@H](CCC(N)=O)C(=O)N[C@@H](CCC(N)=O)C(N)=O)[C@@H](C)CC)[C@@H](C)CC)[C@@H](C)O)[C@@H](C)O)C(C)C)C(C)C  MIC (Candida albicans; broth microdilution; alveolar fluid isolate, RPMI 1640-MOPS; 48 h, 30 °C): 2 µM
Cc1ccc2[nH]c3c(c2c1)CCCC3NCCc1ccc(Br)cc1 (stereo not shown)  MIC (Staphylococcus simulans; broth microdilution; 22): 4 µg/mL
CCCCCCCCCCCCCCCC(=O)NS(=O)(=O)Oc1ccc(OC)cc1  MIC (Streptococcus pneumoniae): 12.5 µg/mL
CC1(C)SC2C(NC(=O)C(NC(=O)C3=C(O)C(Cc4ccc(F)cc4)NC3=O)c3ccccc3)C(=O)N2C1C(=O)O (stereo not shown)  MIC (Escherichia coli; broth microdilution; isolate IU 356 A, KPC-3, VIM-1, TEM; added: clavulanic acid 6 µg/mL): > 200 µg/mL
Cc1ccccc1C(=O)NN=Cc1ccc(O)c(Br)c1  MIC (Cryptococcus neoformans; compound alone, added: amphotericin): 1 µg/mL
CC1(C)SC2C(NC(=O)C(NC(=O)C3=C(O)C(Cc4ccco4)NC3=O)c3ccccc3)C(=O)N2C1C(=O)O (stereo not shown)  MIC (Escherichia coli; broth microdilution; JW0790-2 fiu deletion mutant; ferric iron uptake gene): 6.25 µg/mL
N=C(N)NCCC[C@H](NC(=O)[C@H](Cc1c[nH]c2ccccc12)NC(=O)[C@H](CCCNC(=N)N)NC(=O)[C@H](Cc1c[nH]c2ccccc12)NC(=O)[C@H](Cc1c[nH]c2ccccc12)NC(=O)[C@H](Cc1c[nH]c2ccccc12)NC(=O)[C@H](CCCNC(=N)N)NC(=O)[C@H](Cc1c[nH]c2ccccc12)NC(=O)[C@@H](N)CCCNC(=N)N)C(=O)N[C@@H](Cc1c[nH]c2ccccc12)C(N)=O  MIC (Candida albicans; broth microdilution; 58288, RPMI 1640-MOPS; 48 h, 30 °C): 8 µM
CC(C)(C)Oc1ccc(CC2NC(=O)C(C(=O)NC(C(=O)NC3C(=O)N4C3SC(C)(C)C4C(=O)O)c3ccccc3)=C2O)cc1 (stereo not shown)  MIC (Escherichia coli; broth microdilution; ATCC 35218, low-level TEM-1; added: clavulanic acid 6 µg/mL): 100 µg/mL
CC[C@H](C)[C@H](NC(=O)[C@H](CCCCN)NC(=O)[C@@H](NC(=O)[C@H](Cc1ccc(O)cc1)NC(=O)[C@H](CCCCN)NC(=O)[C@H](CCCCN)NC(=O)CNC(=O)[C@H](CCCCN)NC(=O)[C@@H](NC(=O)[C@H](C)NC(=O)[C@H](CC(C)C)NC(=O)[C@H](Cc1c[nH]c2ccccc12)NC(=O)CNC(=O)[C@@H](NC(=O)[C@H](Cc1ccccc1)NC(=O)[C@H](CCCCN)NC(=O)[C@H](CC(C)C)NC(=O)[C@H](Cc1ccccc1)NC(=O)[C@H](C)NC(=O)CNC(=O)[C@@H](N)CCSC)C(C)C)[C@@H](C)O)C(C)C)C(=O)N[C@@H](C)C(=O)N[C@@H](Cc1c[nH]c2ccccc12)C(=O)N[C@@H](CC(=O)O)C(=O)N[C@@H](Cc1c[nH]cn1)C(=O)N[C@@H](CCCCN)C(=O)NCC(=O)N[C@H](C(=O)N[C@H](C(=O)N[C@@H](CCSC)C(=O)N[C@@H](CCCCN)C(=O)N[C@@H](Cc1c[nH]c2ccccc12)C(=O)N[C@@H](CC(C)C)C(=O)N[C@@H](CC(N)=O)C(=O)N[C@@H](C)C(=O)NCC(=O)N[C@@H](CCC(N)=O)C(=O)N[C@H](C(=O)N[C@@H](Cc1ccccc1)C(=O)N[C@H](C(=O)N[C@@H](Cc1c[nH]c2ccccc12)C(=O)N[C@H](C(=O)N[C@@H](Cc1ccc(O)cc1)C(=O)N[C@@H](CCC(=O)O)C(=O)N[C@@H](CCC(N)=O)C(=O)N[C@H](C(=O)N[C@@H](CCCCN)C(=O)N[C@@H](CCCCN)C(=O)N[C@@H](CC(C)C)C(=O)N[C@@H](Cc1c[nH]c2ccccc12)C(=O)N[C@H](C(=O)O)[C@@H](C)O)[C@@H](C)CC)C(C)C)[C@@H](C)O)[C@@H](C)O)[C@@H](C)CC)[C@@H](C)O  MIC (Streptococcus dysgalactiae; broth microdilution; 37 °C): 41.7 µg/mL
CC(C)(C)OCC1NC(=O)C(C(=O)NC(C(=O)NC2C(=O)N3C2SC(C)(C)C3C(=O)O)c2ccccc2)=C1O (stereo not shown)  MIC (Escherichia coli; broth microdilution; isolate IU, CTX-M-14, TEM-1; no clavulanic acid): > 200 µg/mL
CC(C)(CO)Cc1cc(C(C)(C)C)c(O)c(C(C)(C)C)c1  IC50 (Plasmodium falciparum; HB3): 6.31 µM
CC1(C)SC2C(NC(=O)C(NC(=O)C3=C(O)C(Cc4ccc(O)cc4)NC3=O)c3ccccc3)C(=O)N2C1C(=O)O (stereo not shown)  MIC (Escherichia coli; broth microdilution; isolate IU, CTX-M-14, TEM-1; added: clavulanic acid 6 µg/mL): > 200 µg/mL
CCCCCCCCCCCC(=O)CP(=O)(O)O  MIC (Streptococcus pneumoniae): 25 µg/mL

Some of these lines once more:
CC1(C)SC2C(NC(=O)C(NC(=O)C3=C(O)C(Cc4ccc(F)cc4)NC3=O)c3ccccc3)C(=O)N2C1C(=O)O (stereo not shown)  MIC (Escherichia coli; broth microdilution; isolate IU 356 A, KPC-3, VIM-1, TEM; added: clavulanic acid 6 µg/mL): > 200 µg/mL
CN1CC(O)=C(C(=O)NC(C(=O)NC2C(=O)N3C2SC(C)(C)C3C(=O)O)c2ccccc2)C1=O (stereo not shown)  MIC (Escherichia coli; broth microdilution; isolate IU, CTX-M-14, TEM-1; added: clavulanic acid 6 µg/mL): > 200 µg/mL
CC1(C)SC2C(NC(=O)C(NC(=O)C3=C(O)C4CCCN4C3=O)c3ccccc3)C(=O)N2C1C(=O)O (stereo not shown)  MIC (Escherichia coli; broth microdilution; Keio mutant JW0146-2; 18 h, ferric hydroxamate uptake gene): 25 µg/mL
N=C(N)NCCC[C@H](NC(=O)CN)C(=O)N[C@@H](Cc1c[nH]c2ccccc12)C(=O)N[C@@H](CCCNC(=N)N)C(=O)N[C@@H](Cc1c[nH]c2ccccc12)C(=O)N[C@@H](Cc1c[nH]c2ccccc12)C(=O)N[C@@H](Cc1c[nH]c2ccccc12)C(=O)N[C@@H](CCCNC(=N)N)C(=O)N[C@@H](Cc1c[nH]c2ccccc12)C(=O)N[C@@H](CCCNC(=N)N)C(=O)N[C@@H](Cc1ccccc1)C(N)=O  MIC (Candida albicans; broth microdilution; 56452, RPMI 1640-MOPS; 48 h, 30 °C): 8 µM
